Results from different studies.
Every numbered part comes from another study and shows a few of its results, in no order. Substitutions count along the parent as printed.
Chain of UniProt Q56UN5 (whole entry, looked up): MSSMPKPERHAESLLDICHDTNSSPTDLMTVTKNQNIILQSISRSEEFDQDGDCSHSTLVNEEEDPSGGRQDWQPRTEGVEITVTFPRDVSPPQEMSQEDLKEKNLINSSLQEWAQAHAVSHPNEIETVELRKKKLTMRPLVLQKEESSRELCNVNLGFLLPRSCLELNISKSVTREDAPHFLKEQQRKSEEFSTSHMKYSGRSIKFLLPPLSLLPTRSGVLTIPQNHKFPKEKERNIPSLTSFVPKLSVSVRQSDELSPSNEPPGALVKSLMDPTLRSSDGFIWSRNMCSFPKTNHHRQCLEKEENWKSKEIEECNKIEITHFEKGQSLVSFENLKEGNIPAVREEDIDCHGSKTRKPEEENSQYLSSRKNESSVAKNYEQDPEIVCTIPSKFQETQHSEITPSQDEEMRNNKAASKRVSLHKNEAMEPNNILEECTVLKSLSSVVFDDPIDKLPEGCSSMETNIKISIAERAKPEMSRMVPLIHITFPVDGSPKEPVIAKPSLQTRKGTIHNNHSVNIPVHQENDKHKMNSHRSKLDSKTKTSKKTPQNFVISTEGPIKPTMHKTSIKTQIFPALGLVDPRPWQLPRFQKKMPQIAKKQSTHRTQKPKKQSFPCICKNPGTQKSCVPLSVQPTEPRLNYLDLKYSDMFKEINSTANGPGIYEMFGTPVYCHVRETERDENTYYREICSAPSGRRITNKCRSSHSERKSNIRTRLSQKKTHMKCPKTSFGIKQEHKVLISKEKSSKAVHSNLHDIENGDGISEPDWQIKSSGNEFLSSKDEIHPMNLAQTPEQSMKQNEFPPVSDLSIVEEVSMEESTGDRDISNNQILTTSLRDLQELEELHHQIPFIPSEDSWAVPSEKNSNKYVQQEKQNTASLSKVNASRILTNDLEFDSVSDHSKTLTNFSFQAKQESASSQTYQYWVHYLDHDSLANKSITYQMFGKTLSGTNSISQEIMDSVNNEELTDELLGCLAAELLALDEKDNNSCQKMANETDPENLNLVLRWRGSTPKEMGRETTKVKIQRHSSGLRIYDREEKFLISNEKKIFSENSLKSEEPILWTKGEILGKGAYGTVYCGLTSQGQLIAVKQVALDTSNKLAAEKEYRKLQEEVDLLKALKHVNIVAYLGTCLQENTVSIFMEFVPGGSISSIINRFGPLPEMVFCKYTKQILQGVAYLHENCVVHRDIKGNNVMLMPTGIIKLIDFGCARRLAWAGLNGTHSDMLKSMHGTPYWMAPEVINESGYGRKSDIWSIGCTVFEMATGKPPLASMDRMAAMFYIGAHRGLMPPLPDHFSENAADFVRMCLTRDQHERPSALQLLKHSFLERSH

Series 1 — method: DHFR PCA, deep sequencing; medium: yeast; added: (+)-ABA 4.8 µM; baseline: wild-type fitted maximum; reading: higher = stronger binding
Target: ABI1, truncated, D143A, DHFR fusion (Arabidopsis thaliana)
Notes: methotrexate growth selection, single substitutions
Starting sequence: PYL1, truncated, DHFR fusion (Arabidopsis thaliana); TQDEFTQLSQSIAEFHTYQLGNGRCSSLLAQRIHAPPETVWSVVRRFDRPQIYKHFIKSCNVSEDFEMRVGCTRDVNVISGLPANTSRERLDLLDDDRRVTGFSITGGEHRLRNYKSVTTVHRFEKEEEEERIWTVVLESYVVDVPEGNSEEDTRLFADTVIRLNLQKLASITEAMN
Variant | relative binding score [%]
T17L | 17
E130K | 84.2
S150M | -3.65
L138N | -7.61
T73L | 66.7
A170C | 68.3
C60M | -1.93
S150W | -2.57

Series 2 — method: RNA Bind-n-Seq; form: RNA; medium: in vitro; tested at: 15 pmol; notes: 4-mer, random 30-nt RNA, single round; added: 3 µM RocA, 2 mM AMP-PNP; baseline: mean of 4-mers; reading: higher = stronger binding
Target: Eukaryotic initiation factor 4A-I (EIF4A1, Homo sapiens, UniProt P60842, residues 1-406, full length assumed)
Chain of UniProt P60842 (whole entry, looked up): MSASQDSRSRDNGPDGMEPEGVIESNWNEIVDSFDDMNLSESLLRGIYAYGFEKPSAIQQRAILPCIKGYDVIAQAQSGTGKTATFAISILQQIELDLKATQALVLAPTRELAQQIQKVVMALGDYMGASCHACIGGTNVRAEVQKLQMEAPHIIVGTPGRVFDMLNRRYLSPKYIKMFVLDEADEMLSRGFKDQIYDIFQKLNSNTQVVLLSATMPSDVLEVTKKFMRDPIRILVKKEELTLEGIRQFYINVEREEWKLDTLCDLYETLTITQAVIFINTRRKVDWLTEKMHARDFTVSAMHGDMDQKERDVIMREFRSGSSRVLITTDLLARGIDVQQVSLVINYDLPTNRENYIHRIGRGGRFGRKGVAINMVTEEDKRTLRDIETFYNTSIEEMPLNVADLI
Sequence | 4-mer enrichment Z-score
AAGC | 0.411
UAUG | 0.704
UUGA | 0.869
CGUA | -0.0937
AUCG | -0.523
GCAA | 0.125
UCGU | -0.601
GUUU | 0.538

Series 3 — method: EMSA with sequencing; form: double-stranded DNA, one strand shown; medium: in vitro; tested at: 10 and 20 nM; baseline: negative control set to 0; reading: higher = stronger binding
Target: Hepatocyte nuclear factor 3-alpha (Foxa1, Mus musculus, UniProt P35582, residues 1-468, full length assumed)
Notes: whole designed probe, mean of two concentrations, ends assumed
All sequences stand within: GTGAGCGGTGCCCATTGATGGGGAAC … TTTCACTGGGATCGTGGGGAC
Construct (chain): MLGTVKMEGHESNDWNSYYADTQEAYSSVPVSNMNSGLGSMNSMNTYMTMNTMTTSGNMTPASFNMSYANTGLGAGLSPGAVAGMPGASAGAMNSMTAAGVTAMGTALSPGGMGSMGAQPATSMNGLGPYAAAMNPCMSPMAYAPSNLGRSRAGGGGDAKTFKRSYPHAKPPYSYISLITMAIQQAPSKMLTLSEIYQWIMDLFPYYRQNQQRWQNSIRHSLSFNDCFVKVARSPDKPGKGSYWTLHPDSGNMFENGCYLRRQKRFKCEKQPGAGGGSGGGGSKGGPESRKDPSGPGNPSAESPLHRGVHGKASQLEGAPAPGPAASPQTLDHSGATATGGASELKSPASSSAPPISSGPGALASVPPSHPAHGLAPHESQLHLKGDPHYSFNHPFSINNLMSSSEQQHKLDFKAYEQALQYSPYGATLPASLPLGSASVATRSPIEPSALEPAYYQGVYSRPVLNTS
Sequence | normalised bound fraction [ratio]
AGAGGTTCTGCCTTATCAGAGTCCCTGACCCACAGTGAGAAATTAATACACATATTTTTGAATAAATTTTGAATAAGTAACTGGGGATTTAAGTAATCTAGAAATTACCCTATAGTGAGAGAAGAGTTTTAACATGTGGTGAGTGGTACAAAGTAGCACACCCAAGGTCGTGGGTTAATGACTTCCTTCCTTG | -0.0594
TTAAGTATGTTCCACAAGGAATAGTAAGTGATGGCATTCACTGAAATAGGAACTTTATCTAAATGTTTCCATGCATCCTTATTGTTATAATGAGTAAATAATAACAGTGGCCATATTAAAAATAGAATTACCCTTTTTGAATTAAAATTATGTATTTGAATTAGAAAAAAAGCATTTGAAACATGTATTTTTA | 0.27
CTTGCTTACTGCTAGCACAGCAGTCTGAGATGCATCTGCGAGGCGGCAGCCTGGCTGGGGGAGGGGTATCCGCCATTGCTGAGGCTTGAGTAGGTAATCTAAGCAGCCAGGAAGCTCGAACTGGGCGGAGCCCACCTCAGCTCAACAACGCCTACTGCCTCTAGACTCCACCTCTGTGGGCAGGGCACAGCTG | -0.0538
GTGGGTAACTGAGAGAAAGCCATAAAGGTAAAGTGGCATGTTAATCACATCATATCGATGATACATACTATTCATATGATTTATGATTATTGATGTTGGCCTTGATGACCTTGCTGAGATAGTATTTGTCAGGTTTCTCCACTGTAAAACTCCCCCATTTCTATATCGTACTCTTTGAAGGAAGTGACAATGT | -0.0313
CTGCAGCACTACAGCCCCTTTCTAGGACATCCCTGAAGGATGCAGTGAAGGGAAATCTTCCCAGTGGGCAGAACTTCCAGCAGTGCACCTGGTAGAGTACTTTGCATGGAAGGAGAAATAATCAAATGTGTGATTACATACTGATTCATGGGCTGCAGCCAATGGTTTGGCTGGATGGTCAGGGAGGTCATTC | -0.0385
GCAAAACTCCTACTGTTGATGGCTGAATCCTATCAGGAAATTTTGATTTTACTGAGACAAAGTGCCTGCTACAAAGGACTCAGAAGTCTACTAAGTAATCTGGAAACTGGGACAGAATTCAGTCAAGAACTTAGACAGCTCATTGGCCTTTTAAGCCCAACGGTCTATCAGGAAGTAGAAAAGCAGAAACTAC | -0.0757
AGGTTAAAGATTACATTCTAACCACACACCAGTCATACTCTGCTCCGGGAAAAACCTTAAGTACTTGTGACCTTCTGTCCCTAACTTAGATGTAGATTACTTTCAGTTTACATACAGTGCAATCTCCAGGGTGTACATGATTTTCAAGTCAAAAAAGATAAGGACTAATCCAGAAAGGAGAAGGAATTCTGTT | -0.00581
CATTAGAGTCAAAGTTGTTAAGGGGAGCTAGTCATAGCTACCACGTGGCCAGGCATGTGGAACCAGACACCAGGCACACATCATGTAACATCATATTTACTTTAAATAATGCTGACAACCTAGTATGAATCATCACACTACTTGAGATATATAGAATAACATTATTACCCAGTAAGTATGTGAACATTCCGAT | 0.304

Single results of other studies
Compound | target | read-out | method | tested at | endpoint | value
CCC(=O)N[C@@H]1CC[C@H](C(=O)N(C)c2ccc(-c3nc4ccccc4o3)cc2)C1 | Mitogen-activated protein kinase kinase kinase 19 (MAP3K19, Homo sapiens, UniProt Q56UN5) | cell-free assay | competition with immobilised ligand | 1 µM | remaining binding | 92%
